Experimental data collected from several papers.
Parts stem from different laboratories: compare values within a part only. Positions count from the first letter of the parent shown.

Series 1 — target: CCNB2, cyclin fold, Cln2 fusion (human); method: yeast growth competition, sequencing; matrix: yeast; notes: weak parent motif; baseline: not given; reading: higher = stronger binding; quantity: normalised enrichment score
Starting sequence: SAMHD1 docking peptide (human); ASKSRVQLFKDDP; partner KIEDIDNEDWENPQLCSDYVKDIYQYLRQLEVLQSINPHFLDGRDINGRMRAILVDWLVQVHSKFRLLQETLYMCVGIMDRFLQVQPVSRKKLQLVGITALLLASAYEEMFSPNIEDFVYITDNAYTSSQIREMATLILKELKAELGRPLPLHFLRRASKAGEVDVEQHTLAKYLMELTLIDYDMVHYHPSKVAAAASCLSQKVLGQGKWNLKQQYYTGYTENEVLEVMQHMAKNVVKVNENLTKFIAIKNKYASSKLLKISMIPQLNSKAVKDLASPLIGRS
S2W: 0.267
D12W: -0.0553
D12I: 0.138
V6L: 0.175
V6G: 0.179
R5Y: -0.0192
K10Q: -0.0919
D12K: 0.335
K10Y: -0.255
D12S: 0.349
S2M: 0.0915
L8N: 0.258
F9H: 0.931
D11P: 0.68
K3M: 0.0523
K3Y: 0.196
L8W: 0.175
D11S: 0.358
D11L: -0.13
L8E: 0.18
S4A: 0.0989

Series 2 — method: DHFR PCA, deep sequencing; matrix: yeast; added: (+)-ABA 1.4 µM; baseline: wild-type fitted maximum; reading: higher = stronger binding; quantity: relative binding score
Target: ABI1, truncated, D143A, DHFR fusion (Arabidopsis thaliana)
Notes: methotrexate growth selection, single substitutions
Starting sequence: PYL1, truncated, DHFR fusion (Arabidopsis thaliana); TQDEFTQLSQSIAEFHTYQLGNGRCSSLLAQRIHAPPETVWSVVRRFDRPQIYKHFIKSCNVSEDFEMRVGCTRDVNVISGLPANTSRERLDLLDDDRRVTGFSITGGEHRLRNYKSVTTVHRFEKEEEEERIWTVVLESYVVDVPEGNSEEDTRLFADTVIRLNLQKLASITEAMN
R132S: 84.7%
P83F: -14.8%
Q31D: -2.26%
P36I: 4.67%
A175W: 19.7%
G23A: 19.4%
E152F: 10.6%
G81L: 0.595%
E89R: 6.19%
S11I: 51.9%
E125N: 59.8%
L8C: 33%
R69T: 52.6%
R132A: 80.5%
E131K: 72.2%
V43L: 39%
I162L: 11.7%
T106V: 94.9%
E38R: 9.74%
F5H: 44.8%
E4S: 39.8%
Q7P: 31.2%
G102N: -3.37%
I79K: 29.1%

Series 3 — method: protein-binding microarray; form: double-stranded DNA, one strand shown; matrix: in vitro; tested at: 250 nM; notes: 60-bp whole probe; added: salmon DNA 0.4 mg/ml; baseline: random background probes; reading: higher = stronger binding; quantity: log fluorescence; constant ends, left off below: GCCTAGCAC … GTCTTGATTCGCTTGACGCTGCTG
Target: Interferon regulatory factor 7, full length, phosphomimetic (IRF7, Homo sapiens, UniProt Q92985, residues 1-503, S101K/S471D/S472D/S475D/S476D/S477D/S483D/S484D/S487D)
Sequence of UniProt Q92985 (whole entry, unmodified, looked up): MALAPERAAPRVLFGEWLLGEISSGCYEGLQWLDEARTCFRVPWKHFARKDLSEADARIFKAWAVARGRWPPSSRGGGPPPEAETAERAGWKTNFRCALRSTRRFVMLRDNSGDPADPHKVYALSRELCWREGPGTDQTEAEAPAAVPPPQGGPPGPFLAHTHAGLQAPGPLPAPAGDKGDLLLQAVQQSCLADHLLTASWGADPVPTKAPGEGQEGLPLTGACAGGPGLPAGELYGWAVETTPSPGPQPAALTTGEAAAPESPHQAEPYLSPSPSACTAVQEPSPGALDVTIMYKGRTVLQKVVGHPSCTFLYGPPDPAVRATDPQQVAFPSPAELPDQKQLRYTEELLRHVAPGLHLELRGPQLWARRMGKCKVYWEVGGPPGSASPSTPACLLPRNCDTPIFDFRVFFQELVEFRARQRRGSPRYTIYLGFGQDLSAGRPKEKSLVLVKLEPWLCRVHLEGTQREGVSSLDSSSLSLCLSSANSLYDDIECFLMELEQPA
TTAGATATCGGGGCTGGATTAGTGCTA: -0.355 z-score
TTAGGTCTCGGACTGGCTTAGTGCTAG: 0.229 z-score
TCATATTAAATTTTCACACTGTGCTAG: 0.919 z-score
ATTACTCCCCAACTCGCCTTGTGCTAG: 1.01 z-score
CACGATATCAGTCTCGAGACGTGCTAG: 0.629 z-score
TTAGGTTTCCGTTCCGGTTAGTGCTAG: 5.58 z-score
GAGATCATCCGTTTCTTCTAGTGCTAG: 0.732 z-score
GACGAACTGGGGTATCCAGACGTGCTA: -0.855 z-score
TCAATTTTTTTTATTTAACTGTGCTAG: 0.672 z-score
TTAGAACTGAGTATCCATTAGTGCTAG: -0.0447 z-score
GACGATCTCAGTATCGAGAAGTGCTAG: 0.0454 z-score
TTAGACCTCAGACTGGATTAGTGCTAG: 0.0799 z-score
GACGATCTCATACTGGAGACGTGCTAG: -0.28 z-score
TTGGGTATCGGTCTCGGTTAGTGCTAG: 1.95 z-score
TTAGGTTTCTTTTATTCAAAGTGCTAG: 3.2 z-score
ACTCGTGTTTTTCTCCTATTGTGCTAG: 1.56 z-score
GACGAACTAGGGTATCGAGACGTGCTA: -0.235 z-score
GACGGTCTCCCTCTCCTGACGTGCTAG: -0.148 z-score
GACCGTATCGGGTTTCGGGACGTGCTA: 2.85 z-score
TTAGATTTCGGAACTGGATTAGTGCTA: 1.19 z-score
GACGAACTGCGTCTCGAGACGTGCTAG: -0.0684 z-score

Series 4 — method: RNA Bind-n-Seq; form: RNA; matrix: in vitro; tested at: 365 nM; baseline: no-protein control; reading: higher = stronger binding; quantity: RBNS enrichment (R)
Target: RNA binding protein fox-1 homolog 2, RRM domain, GST-SBP tag (RBFOX2, Homo sapiens, UniProt O43251-10, residues 100-194)
Notes: natural RNA segment, single round, ends assumed
Constant ends, left off below: GGGAGUUCUACAGUCCGACGAUC … UGGAAUUCUCGGGUGCCAA
Residues (chain): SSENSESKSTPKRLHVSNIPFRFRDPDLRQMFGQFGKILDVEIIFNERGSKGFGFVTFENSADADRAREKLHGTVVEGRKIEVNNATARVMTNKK
AUUCUACCCUGAACAUACCUCACAGAUCCUCCCUGUCAUGCCACAUUUCACUGAUUGGAAUGUGGAAAUGGAAAAGGAAUUUAGGAUGUGCAUUUUCACCUGAGGUUUCC: 0.259
UUGCACAUGAACUGUCACAUGUUUAAAAAUGUGUUUUUUAGAGAGCCUCAGUCUUACUGAUUUCAAACACUUUUUUCUUCUGUGUAUUGCUUUUAAGAGAGCCAUCAGUU: 0.378
GCAGAGUCCAACCGAAAACCCCCUAGGUGAGAUAGGCAGUAACUGGGCCUGCUGUCUGCGCCUUUCGUAGUGACAGAUGUGGCUGUAGUGUUUAGGUGUUUGGUCUUGCU: 0.369
UCUUGUUGCAGAGAUUUCCUCCAUGGUGGAAGGGGGUGUGCGUGCGUGUGCGUGCGUGUUAGUGUGUGUGCAUGUGUGUGUCUGUCUUUGUGGGAGGGUAAGACAAUAUG: 1.05
GGCCAAGUGGAUUUUAAGAAGUGAAACUUUUUUUUUUUUUUUUUUUUUUUGAGAUGGGGUUUCACUCUCUCACCCAGACUGGAGUACAGUGGGGAGAUCUCAGCUCACUG: 0.702
CCCAUGAAAGAUUAUUAAUUACAUCUCACUGUAGGGUCUUUCUGGUAUUGAGGGGAGUCAGCAUGUAUUUGCAGCUUAUGUUCAUGGGCAUAUAUAAACAUGUGUAUGUG: 0.52
AGUGGGGGAAAGUGCUAUUUCCUAUUUUCACCAAAAUUGGGGAAGGAGUGCCACUUUCCAGCUCCACUUCAAAUUCCUUAAAAUAUAACUGAGAUUGCUGUGGGGAGGGA: 0.543
CUUCCUCUGGGAUGGGAGUCCCGCAGCAUCGAGACUGGAAACGUACACAUUUCCCCCAGGGACCCUGUCUUACGAUGCUUUUCUACGUCAAUGCAAUUGUGGCCAUCUGG: 0.455
UCCCAAAUGCUUUUAGUGAACCGACUGUAUUUUUCCGAGGUAUCUCGUGUACAUGGUACUUCUUUCUGCUACAGCCGCCAAGUCUAGAGUGUUUACACUGGUUGAUGCUU: 0.33
UCUCCCUUUUAGCUAAAAUCUGAGAGUAGAAUAACCUGAUCUUUGAGGCCUCUUCCAAUGUUAGUCUUUUCUAAGGUAAUUUUUAGUAGGUCAUAAUUCAGUAUAUACUA: 0.233
GCCCGGAGAGACCUAACCUGUAUGUCCACUUUCAUGCUCUUGUUCCCCAAACCCCUGGGCAUUGUUGUCUGCUCAAGAGAUUCUACUGGAAGCAUGAUGACCCACCUGUC: 1.64
CCAUUACAGAUGGUUGUGAGCCGCCAUGUGGUUGCUGGGAGUAGAACUCAGGACCUCUGGGAAAGCAGUCAGUGCUCUUAACCACUGAGCCAUCUCUCCAGCCCCCUAGA: 0.284

Series 5 — method: competition protein-binding microarray; form: double-stranded DNA, one strand shown; matrix: in vitro; tested at: 2 µM; added: Pho4 competitor, 0.05 µM; reading: higher = stronger binding; quantity: fluorescence intensity; constant ends, left off below: … GTCTTGATTCGCTTGACGCTGCTG
Target: Centromere-binding protein 1, full length, His-tagged (CBF1, Saccharomyces cerevisiae, UniProt P17106, residues 1-351)
Sequence of UniProt P17106 (whole entry, looked up): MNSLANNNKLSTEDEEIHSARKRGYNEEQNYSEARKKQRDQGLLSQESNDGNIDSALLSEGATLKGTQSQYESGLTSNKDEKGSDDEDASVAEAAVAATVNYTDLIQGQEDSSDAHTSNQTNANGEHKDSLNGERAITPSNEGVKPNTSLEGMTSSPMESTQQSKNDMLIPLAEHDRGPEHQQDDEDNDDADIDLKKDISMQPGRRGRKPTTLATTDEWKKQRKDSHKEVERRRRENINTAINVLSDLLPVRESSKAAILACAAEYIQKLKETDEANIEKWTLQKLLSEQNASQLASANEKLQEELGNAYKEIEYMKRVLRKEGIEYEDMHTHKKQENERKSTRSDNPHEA
Notes: whole 60-bp probe, lowest competitor level
TGCGCAACAACTTGTTAAGTGGGTGTATGTCTAGAA: 64.6 a.u.
CTATTGATATGCTTGCATGTGGACGCAAGCAGACGC: 103 a.u.
CTGGGTCCGTTACGATTCGTGCTTTAAGAGGTTTAA: 61.4 a.u.
CGTTGCTTATTAAGTGACATGACGCTATTGTATTGT: 85.1 a.u.
AAAGCGGTAATTTGGTAGGTGGGTGCAGATATCTAT: 80.8 a.u.
TGCGCAACAACTTGGCTCGTGGGTGTATGTCTAGAA: 71.7 a.u.
CTACGCTATGGAAACCGCGTGCCAGACTGGTAGAGT: 69 a.u.
CTAACGAAGGTTTGCGTCGTGGGTGACAAGCCAAGT: 75.6 a.u.
TTGTAATGCTTTCGTCTCGTGCCAGGCCTGCGCTAA: 135 a.u.
TCTCCTTGCTCGTACCATGTGGTTTCATCTCAGGGT: 158 a.u.
CTGGGCCCGGGACCCCACGTGGGACGCGCGAGGACC: 504 a.u.
TAGGAAGAAGAACTCGTCGTGCAAATCGGATAGTTG: 85 a.u.
ATATATAAAGTGCGTAATGTGCGTACTAAAAAAGCT: 110 a.u.
GCTCTGTCATCGCTCAACGTGGAAGCTCCGACGGTG: 67 a.u.
CTTGGTATCAATTTCTTCGTGCTTTGCTTGGTTGAA: 85.8 a.u.
CCGCAGACTTTAAGTGCCGTGACGGGTTCCTGGTTA: 70.2 a.u.
ATCAAATGCTGATACCACATGTATGCTATAGTGTCG: 128 a.u.
GGTCCATTCGGCTTGCTGGTGGTACTGAGACAGATA: 61.2 a.u.
CTTTCCCGATCTTGACCGGTGGGTGTAGCACATTTG: 60.8 a.u.
CTAACGAAGGTTTGTCACCATACTTACAAGCCAAGT: 80.3 a.u.

Series 6 — target: CREBL2, bZIP domain (human); method: DHFR protein complementation; matrix: yeast; baseline: wild-type JUN-FOS pair; reading: higher = stronger binding; quantity: binding fitness
Notes: single substitutions, most at no-binding floor
Starting sequence: JUN, bZIP domain (human); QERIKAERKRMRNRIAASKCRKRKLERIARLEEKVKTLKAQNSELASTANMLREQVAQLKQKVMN; partner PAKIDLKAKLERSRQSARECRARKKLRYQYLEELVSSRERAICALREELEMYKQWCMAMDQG
N42I: -1.33 natural log
N42L: -1.48 natural log
Q55P: -1.44 natural log
I28T: -1.45 natural log
V56R: -1.54 natural log
A29D: -1.54 natural log
E33C: -1.38 natural log
R30M: -1.5 natural log
K39E: -1.44 natural log
K39I: -1.43 natural log
E54L: -1.62 natural log
M51K: -1.35 natural log
K36P: -1.53 natural log
L31I: -1.45 natural log
E32P: -1.51 natural log
S47I: -1.32 natural log
S43C: -1.52 natural log
Q58A: -1.18 natural log
A49P: -1.49 natural log
